Published values collected from several papers.
Protocols differ between the studies behind these lines. ± gives the spread as reported. In brackets after ≈: the same amount, converted by molar mass.
Organism: Escherichia coli

SMILES	assay	test system	setting	how to read	endpoint	result
CCCCCCCCCC(=O)OCCSCCC(=O)N[C@H](CCN)C(=O)N[C@@H](CCN)C(=O)N[C@@H](CCN)C(=O)N[C@@H](CC(C)C)C(=O)N[C@H](Cc1ccccc1)C(=O)N[C@@H](CCN)C(=O)N[C@@H](CCN)C(=O)N[C@@H](CC(C)C)C(N)=O	–	ATCC 10546	24 h, 37 °C	–	MBC	8 µM
O=C(O)CN(CC(=O)O)CP(=O)(O)O	–	VIM-2 producer	32 µg/mL, together with: meropenem	reference: meropenem alone	fold MIC reduction	64
CC1(C)C(NC(=O)C(=NOC2(C(=O)O)CC2)c2csc(N)n2)C(=O)N1OS(=O)(=O)O (centres unmarked)	–	ATCC 2469 NDM-1, ICR mouse systemic infection	intravenous	–	ED50	8.65 mg/kg
CC[C@H](C)CCCCC(=O)N[C@@H](CCN)C(=O)N[C@H](C(=O)N[C@@H](CCN)C(=O)N[C@H]1CCNC(=O)[C@H]([C@@H](C)O)NC(=O)[C@H](CCN)NC(=O)[C@H](CCN)NC(=O)[C@H](CC(C)C)NC(=O)[C@@H](CC(C)C)NC(=O)[C@H](CCN)NC1=O)[C@@H](C)O	daily serial passaging	ATCC 8739	highest sub-MIC, 31 days	reference: initial MIC	MIC fold change	2.63
CC[C@H](C)[C@H](NC(=O)[C@H](Cc1ccccc1)NC(=O)[C@H](CCCCN)NC(=O)[C@H](CCCCN)NC(=O)CNC(=O)[C@H](C)NC(=O)[C@H](CC(N)=O)NC(=O)[C@H](CCCCN)NC(=O)[C@H](Cc1ccccc1)NC(=O)[C@H](CC(N)=O)NC(=O)[C@H](CCC(=O)O)NC(=O)[C@H](Cc1c[nH]c2ccccc12)NC(=O)[C@H](CC(C)C)NC(=O)[C@@H](N)CO)C(=O)N[C@@H](CC(C)C)C(=O)N[C@@H](CC(N)=O)C(=O)N[C@H](C(=O)N[C@@H](CC(C)C)C(=O)N[C@@H](CC(=O)O)C(=O)N[C@@H](CCCCN)C(N)=O)[C@@H](C)CC	colony counts	ATCC 8739	1 x MIC	–	time to eradication	> 120 min
C[C@@H](N)[C@H](O)CCCCCCCC(=O)CCCCCCCCCCCCCC[C@@H](O[C@@H]1O[C@H](CO)[C@H](O)[C@H](O)[C@H]1O)[C@H](N)CO	microbial growth, resazurin	ATCC10536	50 µM	–	inhibition	96%
C=CCN1C(=O)C(CC=C)(C(=O)OCC)Oc2cc(F)ccc21 (centres unmarked)	–	BL21(DE3)	100 µM	–	growth inhibition	no inhibition
CN(C)S(=O)(=O)c1ccc(S(=O)(=O)N2CCC(n3c(=O)[nH]c4ccccc43)CC2)cc1	–	Keio wild type	concentration not given, 24 h	–	rifampicin concentration	15.6 µg/mL
C=CC(=O)NCCCCCCCCOCc1cn(CCCCCCCCNC(=O)C=C)nn1	growth, turbidity OD600	ΔtolC	24 h	–	IC50	> 100 µM
CC[C@H](C)[C@H](NC(=O)[C@H](Cc1c[nH]c2ccccc12)NC(=O)c1ccccc1)C(=O)N[C@H](C(=O)N[C@@H](Cc1ccc(O)cc1)C(=O)N[C@@H](CCCCN)C(=O)N[C@@H](Cc1c[nH]c2ccccc12)C(=O)N1CCC[C@@H]1C(=O)N[C@@H](CCCNC(=N)N)C(=O)N[C@@H](CCCCN)C(=O)N[C@@H](CCCCN)C(=O)N[C@H](C(=O)N[C@@H](CCCNC(=N)N)C(=O)N[C@@H](Cc1ccc(O)cc1)C(=O)N[C@@H](Cc1c[nH]c2ccccc12)C(=O)N[C@H](C(=O)NCC(=O)N1CCC[C@H]1C(N)=O)[C@@H](C)O)C(C)C)C(C)C	growth	DH5α	16 h, 37 °C	–	IC50	95 µM
CC(C)C[C@H](NC(=O)[C@H](CCN)NC(=O)[C@H](CCN)NC(=O)[C@@H](Cc1ccccc1)NC(=O)[C@H](CC(C)C)NC(=O)[C@H](CCN)NC(=O)[C@H](CCN)NC(=O)[C@@H](CCN)NC(=O)[C@@H](N)CS)C(N)=O	–	ATCC 10546	24 h, 37 °C	–	MBC	32 µM
CC[C@H](C)[C@H](NC(=O)[C@H](CCCNC(=N)N)NC(=O)[C@H]1CCCN1C(=O)[C@H](Cc1ccc(O)cc1)NC(=O)[C@@H](NC(=O)[C@@H](NC(=O)[C@H](CCCNC(=N)N)NC(=O)[C@H](Cc1ccccc1)NC(=O)[C@@H](NC(=O)[C@H](Cc1c[nH]c2ccccc12)NC(=O)[C@H](Cc1c[nH]c2ccccc12)NC(=O)c1ccccc1)C(C)C)C(C)C)C(C)C)C(=O)N[C@H](C(=O)N[C@@H](Cc1ccc(O)cc1)C(=O)N[C@@H](CCCNC(=N)N)C(=O)N[C@@H](CCCNC(=N)N)C(=O)N[C@H](C(=O)N[C@@H](CCCNC(=N)N)C(=O)N[C@@H](Cc1c[nH]c2ccccc12)C(=O)N[C@H](C(=O)NCC(=O)N1CCC[C@H]1C(=O)N[C@@H](CCCCN)C(=O)N[C@@H](CCCCN)C(N)=O)[C@@H](C)O)C(C)C)C(C)C	cell growth	DH5α	–	–	IC50	12.4 µM
O=C1C=CC(=O)N1CCCCCCOCc1cn(CCCCCCN2C(=O)C=CC2=O)nn1	growth, turbidity OD600	ΔtolC	24 h	–	IC50	> 100 µM
O=CCNCCOn1c(=O)n(OCCNCCO)c(=O)n(OCCNCCOn2c(=O)n(OCCNCCO)c(=O)n(OCCNCCO)c2=O)c1=O	broth microdilution	–	–	–	MLC	4 ± 2 µg/mL (≈ 5.2 µM)
COc1ccc(CC2[NH2+]CCc3cc(OC)c(OC)cc32)cc1OC.[Cl][Fe-]([Cl])([Cl])[Cl] (centres unmarked)	–	–	24 h, 37 °C	–	MIC50	927 µM
CC(C)C[C@H](NC(=O)[C@H](Cc1ccccc1)NC(=O)[C@H](CCC(N)=O)NC(=O)[C@H](Cc1ccc(O)cc1)NC(=O)[C@H](CCCCN)NC(=O)[C@@H]1CCCN1C(=O)[C@H](CCCNC(=N)N)NC(=O)[C@H](CCC(N)=O)NC(=O)[C@H](Cc1c[nH]c2ccccc12)NC(=O)[C@H](CS)NC(=O)[C@H](Cc1c[nH]c2ccccc12)NC(=O)[C@H](Cc1ccccc1)NC(=O)[C@H](CCCNC(=N)N)NC(=O)[C@H](CCCCN)NC(=O)[C@H](CCCCN)NC(=O)[C@H](CCCCN)NC(=O)[C@@H](NC(=O)[C@@H](NC(=O)[C@H](CC(C)C)NC(=O)[C@@H](N)CO)C(C)C)[C@@H](C)O)C(=O)O	–	K12 MG1655	–	–	MBC	32 µg/mL
C=CC(=O)NCCCCOCc1cn(CCCCNC(=O)C=C)n[n+]1C	growth, turbidity OD600	ΔtolC	24 h	–	IC50	> 100 µM
CC[C@H](C)[C@H](NC(=O)[C@H](C)NC(=O)CNC(=O)[C@H](C)NC(=O)[C@H](CCCCN)NC(=O)[C@H](CO)NC(=O)[C@H](C)NC(=O)[C@H](CCSC)NC(=O)CN)C(=O)N[C@@H](C)C(=O)NCC(=O)N[C@@H](CCCCN)C(=O)N[C@H](C(=O)N[C@@H](C)C(=O)N[C@@H](CCCCN)C(=O)N[C@H](C(=O)N[C@@H](C)C(=O)N[C@@H](CC(C)C)C(=O)N[C@@H](CCCCN)C(=O)N[C@@H](C)C(=O)N[C@@H](CC(C)C)C(N)=O)C(C)C)[C@@H](C)CC	–	CFT073 ampicillin-resistant	together with: ampicillin	–	combination index	0.91
C=CC(=O)NCCCCCCCCCCOCc1cn(CCCCCCCCCCNC(=O)C=C)nn1	growth, turbidity OD600	ΔtolC	24 h	–	IC50	> 100 µM
COc1c(NC(=O)/C(C)=C/c2ccc(O)cc2)ccc(C(=O)N[C@@H](CC#N)C(=O)Nc2ccc(C(=O)Nc3ccc(C(=O)Nc4ccc(C(=O)O)cc4)c(O)c3OC)c(O)c2OC)c1O	–	clones expressing hydrolases	concentration not given	reference: empty vector	MIC fold change	4 fold
C#CCCCC(=O)N[C@H]1CCOC1=O	LuxR reporter, antagonist	DH5α sensor strain	1 µM, together with: OHHL 200 nM	–	inhibition	46 ± 2%
C=C(C)C(=O)NCCCCCCOCc1cn(CCCCCCNC(=O)C(=C)C)nn1	growth, turbidity OD600	ΔtolC	24 h	–	IC50	> 100 µM
CSCC[C@H](NC(=O)[C@@H]1CCCN1C(=O)[C@H](CCCNC(=N)N)NC(=O)[C@H](CCCCN)NC(=O)[C@H](CCC(=O)O)NC(=O)[C@H](Cc1ccc(O)cc1)NC(=O)[C@H](CO)NC(=O)[C@H](CS)NC(=O)[C@H](CCCCN)NC(=O)[C@H](CCCCN)NC(=O)CCNC(=O)CCCCCNC(=O)[C@H](CCCNC(=N)N)NC(=O)CCCCCNC(=O)[C@H](CCCNC(=N)N)NC(=O)[C@H](CCCNC(=N)N)NC(=O)CCCCCNC(=O)[C@H](CCCNC(=N)N)NC(=O)[C@H](CCCNC(=N)N)NC(=O)CCCCCNC(=O)[C@H](CCCNC(=N)N)NC(=O)[C@H](CCCNC(=N)N)NC(=O)CCCCCNC(=O)[C@@H](N)CCCNC(=N)N)C(=O)N[C@@H](CS)C(=O)N[C@@H](CCCCN)C(=O)O	crystal violet	ATCC 25922	–	–	minimum biofilm inhibitory concentration	1.5 µM

A few entries again:
SMILES	assay	test system	setting	how to read	endpoint	result
O=C(O)CN(CC(=O)O)CP(=O)(O)O	–	VIM-2 producer	32 µg/mL, together with: meropenem	reference: meropenem alone	fold MIC reduction	64
O=C1C=CC(=O)N1CCCCCCOCc1cn(CCCCCCN2C(=O)C=CC2=O)nn1	growth, turbidity OD600	ΔtolC	24 h	–	IC50	> 100 µM
C#CCCCC(=O)N[C@H]1CCOC1=O	LuxR reporter, antagonist	DH5α sensor strain	1 µM, together with: OHHL 200 nM	–	inhibition	46 ± 2%
